Experimental data gathered from unrelated publications.
Numbered parts are unrelated; each lists some results of a single study.
Chain of UniProt P49761 (whole entry, looked up): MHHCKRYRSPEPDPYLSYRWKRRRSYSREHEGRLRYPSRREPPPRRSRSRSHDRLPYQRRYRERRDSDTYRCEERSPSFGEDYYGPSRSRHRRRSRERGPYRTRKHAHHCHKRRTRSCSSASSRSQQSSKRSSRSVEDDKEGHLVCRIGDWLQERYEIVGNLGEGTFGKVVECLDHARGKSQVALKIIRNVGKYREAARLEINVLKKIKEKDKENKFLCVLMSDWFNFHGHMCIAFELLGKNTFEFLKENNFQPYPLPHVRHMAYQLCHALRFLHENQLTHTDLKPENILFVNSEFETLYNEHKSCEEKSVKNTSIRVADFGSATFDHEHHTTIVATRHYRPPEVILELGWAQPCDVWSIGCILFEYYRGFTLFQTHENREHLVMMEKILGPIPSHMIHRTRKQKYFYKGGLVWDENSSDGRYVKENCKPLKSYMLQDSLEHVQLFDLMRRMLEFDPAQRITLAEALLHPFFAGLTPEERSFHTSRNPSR
Chain of UniProt P31751 (whole entry, looked up): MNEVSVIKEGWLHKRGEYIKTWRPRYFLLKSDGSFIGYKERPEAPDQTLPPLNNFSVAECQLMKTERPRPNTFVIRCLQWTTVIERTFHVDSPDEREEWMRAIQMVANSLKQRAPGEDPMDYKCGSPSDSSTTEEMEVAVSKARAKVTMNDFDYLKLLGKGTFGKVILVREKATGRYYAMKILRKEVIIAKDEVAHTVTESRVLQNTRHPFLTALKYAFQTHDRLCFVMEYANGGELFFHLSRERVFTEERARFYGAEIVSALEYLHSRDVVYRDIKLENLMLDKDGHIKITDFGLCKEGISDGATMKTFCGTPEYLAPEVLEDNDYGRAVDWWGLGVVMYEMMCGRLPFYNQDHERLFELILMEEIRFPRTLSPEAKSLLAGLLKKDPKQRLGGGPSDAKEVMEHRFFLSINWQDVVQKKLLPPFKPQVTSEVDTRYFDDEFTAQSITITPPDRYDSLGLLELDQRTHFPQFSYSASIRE
Chain of UniProt Q16566 (whole entry, looked up): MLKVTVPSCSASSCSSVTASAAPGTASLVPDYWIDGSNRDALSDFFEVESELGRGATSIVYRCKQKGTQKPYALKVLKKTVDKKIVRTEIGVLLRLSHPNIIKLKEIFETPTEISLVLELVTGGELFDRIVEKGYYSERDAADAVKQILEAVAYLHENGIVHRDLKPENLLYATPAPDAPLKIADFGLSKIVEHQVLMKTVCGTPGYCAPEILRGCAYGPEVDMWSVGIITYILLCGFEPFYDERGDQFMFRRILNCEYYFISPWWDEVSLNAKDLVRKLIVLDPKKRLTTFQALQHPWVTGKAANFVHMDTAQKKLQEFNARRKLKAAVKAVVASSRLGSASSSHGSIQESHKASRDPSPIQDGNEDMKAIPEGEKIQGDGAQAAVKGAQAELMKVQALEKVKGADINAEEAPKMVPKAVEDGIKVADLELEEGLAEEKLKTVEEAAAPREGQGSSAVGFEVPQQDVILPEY
Chain of UniProt Q8N4C8 (whole entry, looked up): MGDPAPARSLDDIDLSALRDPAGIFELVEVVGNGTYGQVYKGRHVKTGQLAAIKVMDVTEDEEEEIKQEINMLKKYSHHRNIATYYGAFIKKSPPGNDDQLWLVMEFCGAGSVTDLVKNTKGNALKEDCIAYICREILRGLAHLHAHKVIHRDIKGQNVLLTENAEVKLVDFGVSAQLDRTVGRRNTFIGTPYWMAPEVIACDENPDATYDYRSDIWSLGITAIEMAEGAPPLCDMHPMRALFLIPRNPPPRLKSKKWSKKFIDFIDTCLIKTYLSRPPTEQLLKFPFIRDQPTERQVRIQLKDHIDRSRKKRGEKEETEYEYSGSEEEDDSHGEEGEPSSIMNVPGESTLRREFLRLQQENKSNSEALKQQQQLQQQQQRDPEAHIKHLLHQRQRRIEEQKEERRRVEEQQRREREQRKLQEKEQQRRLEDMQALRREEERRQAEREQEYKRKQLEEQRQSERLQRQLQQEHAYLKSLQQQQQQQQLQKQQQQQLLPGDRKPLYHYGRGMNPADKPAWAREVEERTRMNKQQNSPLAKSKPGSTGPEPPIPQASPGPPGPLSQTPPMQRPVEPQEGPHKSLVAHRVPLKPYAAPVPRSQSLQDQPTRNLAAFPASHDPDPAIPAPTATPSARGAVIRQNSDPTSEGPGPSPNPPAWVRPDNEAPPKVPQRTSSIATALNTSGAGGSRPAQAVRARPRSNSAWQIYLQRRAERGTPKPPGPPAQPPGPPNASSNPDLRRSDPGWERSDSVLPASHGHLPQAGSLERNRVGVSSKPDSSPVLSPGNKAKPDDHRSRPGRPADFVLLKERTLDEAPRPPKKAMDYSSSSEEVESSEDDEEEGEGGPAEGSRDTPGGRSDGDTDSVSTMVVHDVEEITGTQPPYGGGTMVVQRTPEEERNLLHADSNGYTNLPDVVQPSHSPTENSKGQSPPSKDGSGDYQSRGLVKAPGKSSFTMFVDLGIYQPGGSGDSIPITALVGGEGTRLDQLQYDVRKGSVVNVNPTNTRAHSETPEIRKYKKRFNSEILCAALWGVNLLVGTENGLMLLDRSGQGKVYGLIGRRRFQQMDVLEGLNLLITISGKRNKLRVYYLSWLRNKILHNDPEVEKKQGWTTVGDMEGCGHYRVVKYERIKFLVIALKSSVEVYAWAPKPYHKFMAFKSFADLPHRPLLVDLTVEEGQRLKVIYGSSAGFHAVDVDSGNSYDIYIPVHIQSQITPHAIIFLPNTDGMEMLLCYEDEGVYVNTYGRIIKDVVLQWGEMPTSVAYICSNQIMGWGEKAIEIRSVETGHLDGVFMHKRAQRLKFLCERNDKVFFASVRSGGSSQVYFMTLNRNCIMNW
Chain of UniProt Q9H4B4 (whole entry, looked up): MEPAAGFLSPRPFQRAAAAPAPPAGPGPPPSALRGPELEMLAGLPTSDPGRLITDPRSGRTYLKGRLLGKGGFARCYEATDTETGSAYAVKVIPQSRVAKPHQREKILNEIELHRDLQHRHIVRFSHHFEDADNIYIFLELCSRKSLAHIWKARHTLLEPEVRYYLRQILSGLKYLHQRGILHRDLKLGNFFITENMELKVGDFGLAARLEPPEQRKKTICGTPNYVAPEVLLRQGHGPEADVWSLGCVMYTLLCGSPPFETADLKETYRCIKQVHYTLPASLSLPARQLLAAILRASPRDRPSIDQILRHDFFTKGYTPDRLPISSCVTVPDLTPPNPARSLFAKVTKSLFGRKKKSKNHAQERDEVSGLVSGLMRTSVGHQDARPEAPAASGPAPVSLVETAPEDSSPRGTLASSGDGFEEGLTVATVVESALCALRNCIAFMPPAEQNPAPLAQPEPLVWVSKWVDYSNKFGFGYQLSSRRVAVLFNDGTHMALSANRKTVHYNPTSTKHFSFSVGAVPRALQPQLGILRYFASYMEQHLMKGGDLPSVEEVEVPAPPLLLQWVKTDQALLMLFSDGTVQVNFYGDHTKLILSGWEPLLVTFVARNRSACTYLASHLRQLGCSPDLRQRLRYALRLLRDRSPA
Chain of UniProt P51956 (whole entry, looked up): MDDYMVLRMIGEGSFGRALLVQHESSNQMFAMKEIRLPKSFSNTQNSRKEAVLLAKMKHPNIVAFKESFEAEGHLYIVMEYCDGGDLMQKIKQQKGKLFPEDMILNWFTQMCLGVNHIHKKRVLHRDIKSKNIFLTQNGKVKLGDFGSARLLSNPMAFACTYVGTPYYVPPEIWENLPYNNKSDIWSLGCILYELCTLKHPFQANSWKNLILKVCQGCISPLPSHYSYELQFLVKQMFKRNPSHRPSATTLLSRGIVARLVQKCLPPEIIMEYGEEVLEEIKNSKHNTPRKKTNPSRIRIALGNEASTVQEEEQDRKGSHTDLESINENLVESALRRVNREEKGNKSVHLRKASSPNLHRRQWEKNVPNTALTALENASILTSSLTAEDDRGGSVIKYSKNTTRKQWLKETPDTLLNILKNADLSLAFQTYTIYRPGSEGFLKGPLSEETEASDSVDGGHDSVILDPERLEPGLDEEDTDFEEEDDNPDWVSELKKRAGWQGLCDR
Chain of UniProt P28221 (whole entry, looked up): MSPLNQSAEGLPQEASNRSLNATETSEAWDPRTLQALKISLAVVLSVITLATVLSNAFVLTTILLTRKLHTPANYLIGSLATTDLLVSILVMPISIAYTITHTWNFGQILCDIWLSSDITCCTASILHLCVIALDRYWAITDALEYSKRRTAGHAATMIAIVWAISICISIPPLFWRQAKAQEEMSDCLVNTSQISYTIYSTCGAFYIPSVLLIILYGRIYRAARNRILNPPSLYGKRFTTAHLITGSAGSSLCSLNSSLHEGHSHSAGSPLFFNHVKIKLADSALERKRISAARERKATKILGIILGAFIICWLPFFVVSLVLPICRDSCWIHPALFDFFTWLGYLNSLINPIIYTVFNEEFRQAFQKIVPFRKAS
Chain of UniProt Q15759 (whole entry, looked up): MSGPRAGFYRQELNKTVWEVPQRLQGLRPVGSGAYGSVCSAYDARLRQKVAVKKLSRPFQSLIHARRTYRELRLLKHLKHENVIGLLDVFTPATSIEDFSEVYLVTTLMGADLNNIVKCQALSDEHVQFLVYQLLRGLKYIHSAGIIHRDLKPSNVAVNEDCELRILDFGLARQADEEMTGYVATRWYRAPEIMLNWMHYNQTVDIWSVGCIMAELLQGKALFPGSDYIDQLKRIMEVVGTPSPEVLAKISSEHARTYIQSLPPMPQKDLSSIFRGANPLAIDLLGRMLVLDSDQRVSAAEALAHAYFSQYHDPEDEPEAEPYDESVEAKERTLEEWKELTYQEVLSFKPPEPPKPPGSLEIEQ
Chain of UniProt Q6P2M8 (whole entry, looked up): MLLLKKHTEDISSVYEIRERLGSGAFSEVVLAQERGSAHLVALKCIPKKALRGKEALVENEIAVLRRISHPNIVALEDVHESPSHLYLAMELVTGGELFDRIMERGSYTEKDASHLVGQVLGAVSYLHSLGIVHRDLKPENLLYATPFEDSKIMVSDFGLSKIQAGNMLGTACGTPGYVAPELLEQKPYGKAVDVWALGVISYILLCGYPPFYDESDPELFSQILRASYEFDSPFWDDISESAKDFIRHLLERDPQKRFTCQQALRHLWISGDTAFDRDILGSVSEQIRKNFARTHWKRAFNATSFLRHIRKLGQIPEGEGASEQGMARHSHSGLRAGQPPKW

Set 1
Compound: O=c1cc(N2CCOCC2)oc2c1ccc1ccccc12
Effect on: enzyme activity
Action: inhibitor
Tested at: 0.5 µM
Reference: control
target | remaining activity
Hepatocyte growth factor receptor (MET, Homo sapiens, UniProt P08581) | 161%
Calcium/calmodulin-dependent protein kinase type IV (CAMK4, Homo sapiens, UniProt Q16566) | 94%
Dual specificity protein kinase CLK3 (CLK3, Homo sapiens, UniProt P49761) | 81.1%
Cyclin-dependent kinase 9, with cyclin K (CDK9, Homo sapiens, UniProt P50750) | 99.9%
Calcium/calmodulin-dependent protein kinase type 1B (PNCK, Homo sapiens, UniProt Q6P2M8) | 97.4%
Mitogen-activated protein kinase 11 (MAPK11, Homo sapiens, UniProt Q15759) | 97.9%
Serine/threonine-protein kinase PAK 3 (PAK3, Homo sapiens, UniProt O75914) | 102%
RAC-beta serine/threonine-protein kinase (AKT2, Homo sapiens, UniProt P31751) | 98.9%
Serine/threonine-protein kinase PLK3 (PLK3, Homo sapiens, UniProt Q9H4B4) | 64%
Tyrosine-protein kinase TXK (TXK, Homo sapiens, UniProt P42681) | 98.9%
Misshapen-like kinase 1 (MINK1, Homo sapiens, UniProt Q8N4C8) | 96%
MAP/microtubule affinity-regulating kinase 4 (MARK4, Homo sapiens, UniProt Q96L34) | 102%
Serine/threonine-protein kinase Nek3 (NEK3, Homo sapiens, UniProt P51956) | 111%

Set 2
Target: Histone acetyltransferase KAT6A, winged helix 1, GST fusion (KAT6A, Homo sapiens, UniProt Q92794, residues 1-85)
Method: protein binding microarray
Molecule type: double-stranded DNA, one strand shown
Medium: in vitro
Tested at: not given
Setting: 8-mer, flanks averaged, mean of 2 arrays, mostly near background
Reference: not given
Direction: higher = stronger binding
Target sequence (chain): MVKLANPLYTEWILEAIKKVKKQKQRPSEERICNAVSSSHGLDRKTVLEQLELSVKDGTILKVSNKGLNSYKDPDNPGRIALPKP
Strand | E-score
AACATCCC | -0.0503
CAGTGAAG | -0.177
CTGCGTCC | 0.0796
CACGACTA | -0.162
AGCAGACA | -0.321
ACGACATC | -0.0337
GGCGCGTA | 0.385
CTTTGGGC | 0.0142

Set 3
Target: Interferon regulatory factor 7, full length, phosphomimetic (IRF7, Homo sapiens, UniProt Q92985, residues 1-503, S471D/S472D/S475D/S476D/S477D/S483D/S484D/S487D)
Method: protein-binding microarray
Molecule type: double-stranded DNA, one strand shown
Medium: in vitro
Tested at: 2200 nM top
Setting: 60-bp whole probe
Together with: salmon DNA 0.4 mg/ml
Reference: random background probes
Direction: higher = stronger binding
Shared flanks, not repeated: GCCTAGCAC … GTCTTGATTCGCTTGACGCTGCTG
Construct (chain): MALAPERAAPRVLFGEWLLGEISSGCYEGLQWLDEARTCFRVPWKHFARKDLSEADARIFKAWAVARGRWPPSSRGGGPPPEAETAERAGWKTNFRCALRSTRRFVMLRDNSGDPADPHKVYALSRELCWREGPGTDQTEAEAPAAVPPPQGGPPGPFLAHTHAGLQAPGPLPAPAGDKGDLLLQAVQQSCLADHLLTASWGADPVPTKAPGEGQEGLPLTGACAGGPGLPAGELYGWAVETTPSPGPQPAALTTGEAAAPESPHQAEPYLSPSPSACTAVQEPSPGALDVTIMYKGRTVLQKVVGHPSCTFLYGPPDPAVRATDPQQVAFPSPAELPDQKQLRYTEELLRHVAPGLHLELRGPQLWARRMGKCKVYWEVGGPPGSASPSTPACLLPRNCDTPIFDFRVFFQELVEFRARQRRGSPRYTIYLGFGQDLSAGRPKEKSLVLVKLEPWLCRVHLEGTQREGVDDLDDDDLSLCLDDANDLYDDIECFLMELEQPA
Strand | fitted relative affinity [z-score]
TTAGATTGCGGGTATCGATTAGTGCTA | 0.473
GACGGACTGGACAATCGGGACGTGCTA | -0.415
GACAATCTCAGTCTCGAGACGTGCTAG | 0.427
TTAGATTTCTGTCTCGATTAGTGCTAG | 1.06
GACGGTTTCGACACTGGGCACGTGCTA | 2.37
TTAGATCTCAGTCTCGATTGGTGCTAG | 0.739
TTGCTTGTGTTTATTGTGACGTGCTAG | 1.15
TGAGGTTTCGGTATCGGTTAGTGCTAG | 6.97

Mixed results
Effect on: binding
Method: radioligand binding
Tested at: 10 µM
SMILES | target | inhibition
CCCOc1ccc([C@H]2[C@H](C(=O)O)[C@@H](c3ccc4c(c3)OCO4)CN2CC(=O)Nc2c(CC)cccc2CC)cc1 | 5-hydroxytryptamine receptor 3A (HTR3A, Homo sapiens, UniProt P46098) | -5.22%
Nc1c(C(=O)NCc2ccc(C(=O)NCCCC3CCCCC3)cc2)cnn1-c1ccccc1 | 5-hydroxytryptamine receptor 1D (HTR1D, Homo sapiens, UniProt P28221) | 27.6%

Some of these lines once more (set 2):
Strand | E-score
AACATCCC | -0.0503
GGCGCGTA | 0.385
